Measured values from different studies.
Every numbered part comes from another study and shows a few of its results, in no order. Values joined by “and” are separate records of one study, mostly repeats; a detail may differ.
Chain of UniProt Q15139 (whole entry, looked up): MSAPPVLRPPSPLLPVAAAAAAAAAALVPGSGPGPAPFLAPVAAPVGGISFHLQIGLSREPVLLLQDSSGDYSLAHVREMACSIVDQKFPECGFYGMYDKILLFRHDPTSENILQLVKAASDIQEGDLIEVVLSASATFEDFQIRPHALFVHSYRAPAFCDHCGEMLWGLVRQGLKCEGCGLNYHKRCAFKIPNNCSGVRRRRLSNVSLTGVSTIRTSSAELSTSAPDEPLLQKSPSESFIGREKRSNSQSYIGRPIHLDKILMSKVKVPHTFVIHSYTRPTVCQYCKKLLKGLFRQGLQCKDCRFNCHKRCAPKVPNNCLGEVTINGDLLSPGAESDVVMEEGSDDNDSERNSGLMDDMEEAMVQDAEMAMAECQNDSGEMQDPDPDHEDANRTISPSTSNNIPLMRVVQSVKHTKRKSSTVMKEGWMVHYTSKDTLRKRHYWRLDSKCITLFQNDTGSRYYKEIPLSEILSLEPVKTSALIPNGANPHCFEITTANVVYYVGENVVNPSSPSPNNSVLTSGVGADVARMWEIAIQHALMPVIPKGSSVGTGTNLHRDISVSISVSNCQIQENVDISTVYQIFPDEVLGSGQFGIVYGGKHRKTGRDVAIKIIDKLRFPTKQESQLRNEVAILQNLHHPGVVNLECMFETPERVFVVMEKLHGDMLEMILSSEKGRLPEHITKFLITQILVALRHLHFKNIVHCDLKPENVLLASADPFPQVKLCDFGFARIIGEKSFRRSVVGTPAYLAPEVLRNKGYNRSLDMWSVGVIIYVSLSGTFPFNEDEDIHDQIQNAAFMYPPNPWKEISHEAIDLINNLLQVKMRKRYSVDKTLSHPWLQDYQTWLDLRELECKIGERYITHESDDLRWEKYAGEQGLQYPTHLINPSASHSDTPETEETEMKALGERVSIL
Chain of UniProt P19784 (whole entry, looked up): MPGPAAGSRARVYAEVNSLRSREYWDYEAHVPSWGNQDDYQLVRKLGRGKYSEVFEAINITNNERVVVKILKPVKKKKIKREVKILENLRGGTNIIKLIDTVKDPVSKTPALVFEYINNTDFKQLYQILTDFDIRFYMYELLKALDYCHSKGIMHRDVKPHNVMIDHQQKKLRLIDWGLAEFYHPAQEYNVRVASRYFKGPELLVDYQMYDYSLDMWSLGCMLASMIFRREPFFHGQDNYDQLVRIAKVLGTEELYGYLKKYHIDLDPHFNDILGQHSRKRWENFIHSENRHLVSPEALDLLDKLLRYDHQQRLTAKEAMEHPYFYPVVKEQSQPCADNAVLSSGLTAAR
Chain of UniProt Q9H4B4 (whole entry, looked up): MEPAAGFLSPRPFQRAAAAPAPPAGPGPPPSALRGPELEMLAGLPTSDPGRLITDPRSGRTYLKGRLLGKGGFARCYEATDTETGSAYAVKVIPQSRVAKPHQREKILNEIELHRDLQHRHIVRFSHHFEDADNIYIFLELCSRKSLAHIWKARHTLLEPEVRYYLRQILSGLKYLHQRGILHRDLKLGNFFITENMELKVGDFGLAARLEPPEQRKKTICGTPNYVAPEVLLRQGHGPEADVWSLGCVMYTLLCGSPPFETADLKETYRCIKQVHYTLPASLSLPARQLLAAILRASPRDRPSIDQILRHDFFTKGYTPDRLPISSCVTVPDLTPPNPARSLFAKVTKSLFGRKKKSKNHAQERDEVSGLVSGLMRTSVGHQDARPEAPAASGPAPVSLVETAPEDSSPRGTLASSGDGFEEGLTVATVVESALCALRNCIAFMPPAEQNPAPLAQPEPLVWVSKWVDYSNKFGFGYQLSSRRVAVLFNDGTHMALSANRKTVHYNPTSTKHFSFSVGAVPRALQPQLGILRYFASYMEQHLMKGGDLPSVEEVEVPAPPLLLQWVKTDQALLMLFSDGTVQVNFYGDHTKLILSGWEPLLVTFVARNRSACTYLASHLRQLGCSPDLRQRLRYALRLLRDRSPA
Chain of UniProt Q00537 (whole entry, looked up): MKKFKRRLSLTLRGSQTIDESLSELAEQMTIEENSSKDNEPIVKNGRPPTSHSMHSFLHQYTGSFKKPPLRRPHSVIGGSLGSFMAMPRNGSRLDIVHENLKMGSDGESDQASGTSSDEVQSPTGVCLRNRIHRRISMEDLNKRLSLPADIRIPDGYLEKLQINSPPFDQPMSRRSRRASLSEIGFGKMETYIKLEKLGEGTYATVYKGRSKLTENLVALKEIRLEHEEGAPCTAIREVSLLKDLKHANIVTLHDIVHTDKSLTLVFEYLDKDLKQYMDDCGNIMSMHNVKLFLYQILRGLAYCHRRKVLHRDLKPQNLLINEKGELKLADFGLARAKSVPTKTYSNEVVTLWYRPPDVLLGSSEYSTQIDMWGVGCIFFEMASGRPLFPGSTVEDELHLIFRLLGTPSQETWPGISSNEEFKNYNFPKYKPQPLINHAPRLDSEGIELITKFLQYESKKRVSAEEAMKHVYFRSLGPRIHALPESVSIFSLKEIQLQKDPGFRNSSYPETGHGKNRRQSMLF
Chain of UniProt P42336 (whole entry, unmodified, looked up): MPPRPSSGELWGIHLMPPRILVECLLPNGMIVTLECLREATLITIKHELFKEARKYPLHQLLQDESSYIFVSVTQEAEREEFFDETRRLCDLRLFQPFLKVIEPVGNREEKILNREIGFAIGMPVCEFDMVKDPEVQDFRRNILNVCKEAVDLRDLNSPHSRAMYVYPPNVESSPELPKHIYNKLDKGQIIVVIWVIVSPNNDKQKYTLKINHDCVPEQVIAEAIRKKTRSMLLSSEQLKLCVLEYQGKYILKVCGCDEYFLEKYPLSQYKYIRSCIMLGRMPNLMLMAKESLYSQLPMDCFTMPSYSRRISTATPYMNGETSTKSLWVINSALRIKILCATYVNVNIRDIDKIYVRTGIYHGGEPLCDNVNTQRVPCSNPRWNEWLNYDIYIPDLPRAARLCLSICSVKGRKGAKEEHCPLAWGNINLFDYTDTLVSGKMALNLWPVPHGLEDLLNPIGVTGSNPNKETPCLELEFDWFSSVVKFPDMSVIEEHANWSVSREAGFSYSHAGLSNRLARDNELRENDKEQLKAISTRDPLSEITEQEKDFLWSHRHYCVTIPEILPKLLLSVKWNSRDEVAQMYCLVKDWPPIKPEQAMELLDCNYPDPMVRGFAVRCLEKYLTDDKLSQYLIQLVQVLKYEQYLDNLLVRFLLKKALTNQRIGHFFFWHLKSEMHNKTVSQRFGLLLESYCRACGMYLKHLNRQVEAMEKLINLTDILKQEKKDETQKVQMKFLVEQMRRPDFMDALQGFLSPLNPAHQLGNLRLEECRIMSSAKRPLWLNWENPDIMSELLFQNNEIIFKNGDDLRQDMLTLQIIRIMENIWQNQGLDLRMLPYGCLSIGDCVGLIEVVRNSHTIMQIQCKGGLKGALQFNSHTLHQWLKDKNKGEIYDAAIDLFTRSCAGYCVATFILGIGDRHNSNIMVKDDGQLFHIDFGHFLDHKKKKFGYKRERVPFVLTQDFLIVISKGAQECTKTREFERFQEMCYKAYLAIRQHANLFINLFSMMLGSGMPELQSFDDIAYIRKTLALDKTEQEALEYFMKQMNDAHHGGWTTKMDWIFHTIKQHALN
Chain of UniProt Q7KZI7 (whole entry, looked up): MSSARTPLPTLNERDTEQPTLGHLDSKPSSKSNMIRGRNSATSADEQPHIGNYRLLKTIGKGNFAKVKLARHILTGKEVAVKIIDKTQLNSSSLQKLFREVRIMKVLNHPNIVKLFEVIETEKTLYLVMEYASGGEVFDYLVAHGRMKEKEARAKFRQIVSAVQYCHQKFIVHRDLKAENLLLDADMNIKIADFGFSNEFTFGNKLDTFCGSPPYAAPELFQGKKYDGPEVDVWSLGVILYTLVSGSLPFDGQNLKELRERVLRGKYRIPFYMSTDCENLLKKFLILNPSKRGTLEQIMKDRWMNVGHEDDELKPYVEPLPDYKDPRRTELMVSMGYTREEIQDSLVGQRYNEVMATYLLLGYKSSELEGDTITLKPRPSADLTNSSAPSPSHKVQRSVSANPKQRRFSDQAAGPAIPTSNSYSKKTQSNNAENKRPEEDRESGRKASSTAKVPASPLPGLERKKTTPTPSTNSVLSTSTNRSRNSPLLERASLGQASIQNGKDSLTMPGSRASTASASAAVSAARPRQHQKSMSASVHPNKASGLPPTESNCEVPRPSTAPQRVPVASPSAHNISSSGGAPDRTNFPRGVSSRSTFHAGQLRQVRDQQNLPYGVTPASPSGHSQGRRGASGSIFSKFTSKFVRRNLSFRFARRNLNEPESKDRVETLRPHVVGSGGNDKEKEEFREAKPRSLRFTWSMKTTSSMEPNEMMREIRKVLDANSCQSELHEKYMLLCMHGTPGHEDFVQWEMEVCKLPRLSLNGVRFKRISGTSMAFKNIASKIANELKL
Chain of UniProt P51617 (whole entry, looked up): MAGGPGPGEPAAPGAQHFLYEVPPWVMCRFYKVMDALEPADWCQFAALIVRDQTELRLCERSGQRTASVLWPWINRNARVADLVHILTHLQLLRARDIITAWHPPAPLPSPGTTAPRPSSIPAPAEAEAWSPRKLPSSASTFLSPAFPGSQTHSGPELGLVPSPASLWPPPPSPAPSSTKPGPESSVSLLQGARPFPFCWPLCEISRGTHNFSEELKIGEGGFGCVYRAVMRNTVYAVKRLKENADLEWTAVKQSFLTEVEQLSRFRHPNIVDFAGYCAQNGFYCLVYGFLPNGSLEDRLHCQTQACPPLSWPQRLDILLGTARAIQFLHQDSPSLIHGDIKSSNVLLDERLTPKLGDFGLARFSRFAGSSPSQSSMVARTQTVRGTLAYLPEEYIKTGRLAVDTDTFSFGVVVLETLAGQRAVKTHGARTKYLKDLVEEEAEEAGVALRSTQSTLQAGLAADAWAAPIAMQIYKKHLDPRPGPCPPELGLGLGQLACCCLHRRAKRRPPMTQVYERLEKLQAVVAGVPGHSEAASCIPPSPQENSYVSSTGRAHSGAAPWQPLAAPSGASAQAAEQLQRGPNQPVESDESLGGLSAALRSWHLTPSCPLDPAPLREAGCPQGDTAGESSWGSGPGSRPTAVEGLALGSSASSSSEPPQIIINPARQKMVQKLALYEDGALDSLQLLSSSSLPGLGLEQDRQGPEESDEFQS

Sample 1
Compound: c1ccc(Oc2ccc(Nc3c4c(nc5ccccc35)CCC4)cc2)cc1
RAW264.7; resazurin; 0.00332 µM, 64 h — cytotoxicity: -7% and -6%.
It gave 27% and 18% for cytotoxicity (HepG2; resazurin; 16.66 µM, 48 h).
It gave 3% and 2% for cytotoxicity (HepG2; resazurin; 3.32 µM, 48 h).
PMA-differentiated THP-1 macrophages; 20 µM, 64 h — cytotoxicity: 53% and 47%.

Sample 2
Species: human
Medium: microsomes or S9
Tested at: 2 µM
Time: 0.5 h
The remaining compound of COc1cc2cc(O)c(C)cc2cc1Cc1ccccc1 is reported as 92.2%.
CN1CCCN(c2nc(CN3CCCCC3)nc3scc(-c4ccccc4)c23)CC1 gave a remaining compound of 61.2%.
The remaining compound of Cc1cn(S(=O)(=O)c2ccccc2)cc1C(=O)CC(C)C[N+](=O)[O-] (centres unmarked) is reported as 22.8%.

Sample 3
Cell line: mouse MPNST tumor cells
Method: high-content immunofluorescence imaging
Measured: nuclear SOX9
Tested at: 10 µM
Time: 12 h
Notes: mean of 2 replicates
Baseline: DMSO control
Reading: higher = more nuclear SOX9
Cc1cc2c(cc1C(F)(F)F)N(C(=O)Nc1ccc(Oc3cccnc3C)nc1)CC2: “nuclear SOX9 intensity” 124 % of DMSO.
Under “nuclear SOX9 intensity”, CC(=O)c1cc(-c2ccccc2OCC2CC2)c2ncccn12 is recorded as 124 % of DMSO.
CC(C)(C)C(=O)C(Oc1ccc(Cl)cc1)n1ccnc1 (centres unmarked) — result for “nuclear SOX9 intensity”: 109 % of DMSO.
CCc1c(C(=O)NCCc2ccc(N3CCCCC3)cc2)[nH]c2ccc(Cl)cc12 — result for “nuclear SOX9 intensity”: 108 % of DMSO.

Sample 4
Compound: CNCc1ccccc1-c1csc([C@H](C)Nc2nc(C)nc3cc(OC)c(OC)cc23)c1
Observed: cell-free assay
Method: competition with immobilised ligand
Tested at: 1 µM
For Mitogen-activated protein kinase kinase kinase 20 (MAP3K20, Homo sapiens, UniProt Q9NYL2): remaining binding read 100%.
The remaining binding was 100% (Serine/threonine-protein kinase 32B (STK32B, Homo sapiens, UniProt Q9NY57)).
The remaining binding was 80% (Interleukin-1 receptor-associated kinase 1 (IRAK1, Homo sapiens, UniProt P51617)).
Death-associated protein kinase 3 (DAPK3, Homo sapiens, UniProt O43293) — remaining binding: 100%.
Phosphatidylinositol 4,5-bisphosphate 3-kinase catalytic subunit alpha isoform (PIK3CA, Homo sapiens, UniProt P42336, H1047L) — remaining binding: 88%.
The remaining binding was 79% (Homeodomain-interacting protein kinase 1 (HIPK1, Homo sapiens, UniProt Q86Z02)).
Serine/threonine-protein kinase D1 (PRKD1, Homo sapiens, UniProt Q15139) — remaining binding: 100%.
For Casein kinase II subunit alpha' (CSNK2A2, Homo sapiens, UniProt P19784): remaining binding read 100%.
For Protein-tyrosine kinase 2-beta (PTK2B, Homo sapiens, UniProt Q14289): remaining binding read 100%.
It gave 100% for remaining binding (Cyclin-dependent kinase 17 (CDK17, Homo sapiens, UniProt Q00537)).
Serine/threonine-protein kinase MARK2 (MARK2, Homo sapiens, UniProt Q7KZI7) — remaining binding: 100%.
Phosphatidylinositol 3-kinase C2 domain-containing subunit gamma (PIK3C2G, Homo sapiens, UniProt O75747) — remaining binding: 100%.
It gave 87% for remaining binding (Serine/threonine-protein kinase PLK3 (PLK3, Homo sapiens, UniProt Q9H4B4)).

Sample 5
Target: Prothrombin, mature alpha-thrombin (F2, Homo sapiens, UniProt P00734)
Method: aptamer microarray, sandwich
Form: DNA with 2'F-ANA
Medium: in vitro
Tested at: 200 nM
Notes: whole 15-mer aptamer, many near background
Added: Cy3 exosite-II aptamer, 400 nM
Reading: higher = stronger binding
Strand: GGTTGGTGTGGTTGG
`2'F-ANA at 1 2 4 12 14`: “mean fluorescence intensity” 69.2 a.u.
For `2'F-ANA at 1 2 3 4 5 6 7 10 11 12 13 14`, “mean fluorescence intensity” read 48.7 a.u.
Under “mean fluorescence intensity”, `2'F-ANA at 1 3 4 6 7 9 12 13` is recorded as 215 a.u.
`2'F-ANA at 2 3 4 6 12 13` — result for “mean fluorescence intensity”: 598 a.u.
`2'F-ANA at 2 6 7 10 12 13 15`: “mean fluorescence intensity” 128 a.u.
`2'F-ANA at 2 4 5 6 8 10 11 13` — result for “mean fluorescence intensity”: 45.2 a.u.
`2'F-ANA at 1 2 5 6 8 9 10 11 12 13 15`: “mean fluorescence intensity” 54.6 a.u.
`2'F-ANA at 1 2 3 5 7 8 9 10 13 14 15`: “mean fluorescence intensity” 55.2 a.u.

For quick reference, copied from above (sample 1):
It gave 27% and 18% for cytotoxicity (HepG2; resazurin; 16.66 µM, 48 h).
PMA-differentiated THP-1 macrophages; 20 µM, 64 h — cytotoxicity: 53% and 47%.
It gave 3% and 2% for cytotoxicity (HepG2; resazurin; 3.32 µM, 48 h).
RAW264.7; resazurin; 0.00332 µM, 64 h — cytotoxicity: -7% and -6%.
